Experimental data pooled from the literature.
Each line is one published result; not all experiments were run side by side. Numbers after ± are the reported error.

SMILES	test	system	setting	Tmax [h]
CC(=O)c1c([O-])cc(C)oc1=O.[Na+]	–	rat Wistar male, serum	intragastric, 200 mg/kg	0.94 ± 0.2
O=C1C[C@@H](c2ccc(O)cc2)Oc2cc(O)ccc21	–	Sprague Dawley rat, plasma	oral, 3.34 g lyophilized powder/kg, low dose	3.45 ± 2.39
CCc1cc(OC)cc2c(/C=N/NC(=N)NCCc3ccc(F)cc3)c[nH]c12	–	rat, Long-Evans, male, plasma	ip, 10 mg/kg	8
CN1[C@H]2CC[C@@H]1[C@@H](C(=O)O)[C@@H](OC(=O)c1ccccc1)C2	LC-MS/MS	Sprague-Dawley rat, whole blood	intraperitoneal, 20 mg/kg of cocaine	0.815 ± 0.119
COC[C@]12CN(C)[C@@H]3[C@@H]4[C@H](OC)[C@H]1[C@@]3([C@@H](OC)C[C@H]2O)[C@@H]1C[C@@]2(O)[C@H](OC(=O)c3ccccc3)[C@@H]1[C@]4(OC(C)=O)[C@@H](O)[C@@H]2OC	–	Sprague-Dawley rat, plasma	oral, dose not given, with H in PCW extract	0.75
COc1c(O)cc(O)c2c(=O)cc(-c3ccccc3)oc12	–	Sprague Dawley rat, plasma	oral, 10 g lyophilized powder/kg, high dose	5.55 ± 2.17
COC(=O)[C@H]1[C@@H](OC(=O)c2ccccc2)C[C@@H]2CC[C@H]1N2C	LC-MS/MS	Sprague-Dawley rat, male, whole blood	intraperitoneal, 20 mg/kg	0.241 ± 0.0353
Brc1ccc2c(c1)C(c1ccccn1)=NCc1c(-c3cnco3)ncn1-2	–	Sprague-Dawley rat, male, brain	oral, 2 mg/kg	1
COc1c(O[C@@H]2O[C@H](C(=O)O)[C@@H](O)[C@H](O)[C@H]2O)cc(O)c2c(=O)cc(-c3ccccc3)oc12	–	Sprague Dawley rat, plasma	oral, 3.34 g lyophilized powder/kg, low dose	3.25 ± 2.29
COc1ccc2c3c1O[C@H]1C[C@@H](OC(=O)c4ccccc4)C=C[C@@]31CCN(C)C2	–	Wistar rat, female, blood	intravenous, 5.0 mg/kg	0.08
CC1=C(O)C(=O)C=C2C1=CC=C1[C@@]2(C)CC[C@@]2(C)[C@@H]3C[C@](C)(C(=O)O)CC[C@]3(C)CC[C@]12C	–	rat Sprague-Dawley male pups, plasma	intraperitoneal, dose not given	2 to 4
COC[C@@]12CC[C@H](OC)[C@]34C(C([C@H](OC)[C@H]13)[C@]1(OC(C)=O)[C@H]3[C@@H](OC(=O)c5ccccc5)[C@](O)(C[C@H]34)[C@@H](OC)[C@@H]1O)N(C)C2	–	Sprague-Dawley rat, plasma	oral, dose not given, in PCW extract	0.667 ± 0.144
Cc1cc(O)c(C(=O)CCC(C)C)c(=O)o1	–	Sprague Dawley rat, plasma	oral, 3.34 g lyophilized powder/kg, low dose	2.32 ± 1.6
CCCCCn1cc(C(=O)Nc2cccc3ccccc23)c2ccccc21	–	rat, plasma	intraperitoneal, 3 mg/kg, mean of 4	2.63
Cc1ccc(S(=O)(=O)Nc2c(N[C@H]3CC[C@H](NC(=O)Nc4ccc(F)c(Cl)c4)CC3)c(=O)c2=O)cc1	–	rat, plasma	oral, 20 mg/kg	7
[Se]	–	rat, brain	single dose, sodium selenate	~2
C=CC[N+]1([C@H]2C[C@H]3[C@@H]4CC[C@H]5C[C@H](O)[C@@H](N6CCOCC6)C[C@]5(C)[C@H]4CC[C@]3(C)[C@H]2OC(C)=O)CCCC1	–	Sprague Dawley rat, plasma	intravenous, 0.2 mg/kg, together with: vehicle IV	0
CC1(C)[C@@H](O[C@H]2O[C@H](C(=O)O)[C@@H](O)[C@H](O)[C@H]2O[C@@H]2O[C@H](C(=O)O)[C@@H](O)[C@H](O)[C@H]2O)CC[C@]2(C)[C@H]3C(=O)C=C4[C@@H]5C[C@@](C)(C(=O)O)CC[C@]5(C)CC[C@@]4(C)[C@]3(C)CC[C@@H]12	–	Sprague Dawley rat, plasma	oral, 10 g lyophilized powder/kg, high dose	6.86 ± 1.07
O=C(O)CCC(CP(=O)(O)O)C(=O)O (stereo not shown)	–	Wistar rat, male, dorsal root ganglion	ip, 100 mg/kg	0.25
CC1(C)[C@@H](O)CC[C@]2(C)[C@H]3C(=O)C=C4[C@@H]5C[C@@](C)(C(=O)O)CC[C@]5(C)CC[C@@]4(C)[C@]3(C)CC[C@@H]12	–	Sprague Dawley rat, plasma	oral, 3.34 g lyophilized powder/kg, low dose	1.96 ± 1.05
CN1CC[C@]23c4c5ccc(O[C@@H]6O[C@H](C(=O)O)[C@@H](O)[C@H](O)[C@H]6O)c4O[C@H]2[C@@H](O)C=C[C@H]3[C@H]1C5	–	Sprague-Dawley rat, whole blood	intraperitoneal, 10 mg/kg heroin, single heroin dose alone	1.19 ± 0.181
O=C1C[C@@H](c2ccc(O[C@@H]3O[C@H](CO)[C@@H](O)[C@H](O)[C@H]3O)cc2)Oc2cc(O)ccc21	–	Sprague Dawley rat, plasma	oral, 10 g lyophilized powder/kg, high dose	0.14 ± 0.06
C#Cc1ccc2c(c1)C(c1ccccn1)=NCc1c(-c3cnco3)ncn1-2	–	Sprague Dawley rat, brain	oral, 2 mg/kg, cassette dosing	~1
O=C(O)[C@H]1O[C@@H](Oc2cc3oc(-c4ccccc4)cc(=O)c3c(O)c2O)[C@H](O)[C@@H](O)[C@@H]1O	–	Sprague Dawley rat, plasma	oral, 3.34 g lyophilized powder/kg, low dose	3.92 ± 1.91
O=[Se](=O)([O-])[O-].[Na+].[Na+]	–	rat	subcutaneous, 0.04 mg/kg	2

Excerpt of the above:
SMILES	test	system	setting	Tmax [h]
[Se]	–	rat, brain	single dose, sodium selenate	~2
COc1c(O[C@@H]2O[C@H](C(=O)O)[C@@H](O)[C@H](O)[C@H]2O)cc(O)c2c(=O)cc(-c3ccccc3)oc12	–	Sprague Dawley rat, plasma	oral, 3.34 g lyophilized powder/kg, low dose	3.25 ± 2.29
COC[C@]12CN(C)[C@@H]3[C@@H]4[C@H](OC)[C@H]1[C@@]3([C@@H](OC)C[C@H]2O)[C@@H]1C[C@@]2(O)[C@H](OC(=O)c3ccccc3)[C@@H]1[C@]4(OC(C)=O)[C@@H](O)[C@@H]2OC	–	Sprague-Dawley rat, plasma	oral, dose not given, with H in PCW extract	0.75
C=CC[N+]1([C@H]2C[C@H]3[C@@H]4CC[C@H]5C[C@H](O)[C@@H](N6CCOCC6)C[C@]5(C)[C@H]4CC[C@]3(C)[C@H]2OC(C)=O)CCCC1	–	Sprague Dawley rat, plasma	intravenous, 0.2 mg/kg, together with: vehicle IV	0
